Experimental data collected from several papers.
Lines come from different studies, so protocols differ.
Target: Cytochrome P450 3A4 (CYP3A4, Homo sapiens, UniProt P08684)
Chain of UniProt P08684 (whole entry, looked up): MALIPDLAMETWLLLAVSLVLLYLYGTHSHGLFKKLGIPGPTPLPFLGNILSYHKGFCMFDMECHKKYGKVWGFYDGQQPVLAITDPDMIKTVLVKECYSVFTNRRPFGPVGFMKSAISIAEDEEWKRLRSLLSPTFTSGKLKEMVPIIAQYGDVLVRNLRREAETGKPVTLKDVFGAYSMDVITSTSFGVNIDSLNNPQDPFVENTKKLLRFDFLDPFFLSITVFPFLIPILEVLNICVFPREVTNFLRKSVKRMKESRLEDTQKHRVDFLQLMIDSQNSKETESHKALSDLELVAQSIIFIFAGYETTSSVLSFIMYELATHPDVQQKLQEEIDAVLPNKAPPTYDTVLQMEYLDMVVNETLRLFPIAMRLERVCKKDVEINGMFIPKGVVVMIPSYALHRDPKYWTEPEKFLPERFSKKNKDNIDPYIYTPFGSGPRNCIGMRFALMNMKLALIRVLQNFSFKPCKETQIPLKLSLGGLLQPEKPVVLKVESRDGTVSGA

C=C(NC(=O)c1csc(-c2nc3c(cc2O)-c2nc(cs2)C(=O)NC(C(C)O)C(=O)NC(=C(C)OC)c2nc(cs2)C(=O)NC2c4nc(cs4)C(=O)NC(COC(=O)c4c5c6c(cccc6n4O)COC(=O)C(OC4CC(C)(O)C(N(C)C)C(C)O4)C2OC5)c2nc-3cs2)n1)C(N)=O (centres unmarked)  IC50 (enzyme activity, inhibitor; pH 7.4): > 50 µM
CCC1(CC)CC(=O)N(C2CCOc3ccc(C(=O)NC4CC(C)(C)Oc5ccccc54)cc32)C(=N)N1 (centres unmarked)  IC50 (enzyme activity, inhibitor): > 20 µM
N=C(N)SCc1ccccc1CSC(=N)N  IC50 (enzyme activity, inhibitor): > 10 µM
OCC1OC(n2cnc3c(NCc4ccc(Br)s4)ncnc32)C(O)C1O (centres unmarked)  IC50 (enzyme activity, inhibitor, fluorescence; pH 7.4, added: 7-benzyloxy-4-trifluoromethylcoumarin): > 10 µM
NC(=O)c1ccc(C(=O)NOCc2ccc(Sc3cccc(Cl)c3)c(C(F)(F)F)c2)cc1  IC50 (pooled human liver microsomes; 5 min): 10.5 µM
CCC1(CC)CC(=O)N(C2c3cc(C(=O)NC4c5ccccc5CC4O)ccc3OC2(C)COC)C(=N)N1 (centres unmarked)  IC50 (enzyme activity, inhibitor): > 20 µM
CC(C)(C)n1ncc2c(=O)n(Cc3cccc(F)c3)c(NCc3ccc(F)cn3)nc21  IC50 (enzyme activity, inhibitor): 8.14 µM
O=C(NC1CCC(F)(F)CC1)C(c1cncnc1)N(C(=O)C(F)Cl)c1ccc(OC(F)(F)F)cc1 (centres unmarked)  IC50 (enzyme activity, inhibitor; 10 (unit not given)): 37.8 µM

Some of these lines once more:
OCC1OC(n2cnc3c(NCc4ccc(Br)s4)ncnc32)C(O)C1O (centres unmarked)  IC50 (enzyme activity, inhibitor, fluorescence; pH 7.4, added: 7-benzyloxy-4-trifluoromethylcoumarin): > 10 µM
